Published values pooled from the literature.
Compare with care: the assays were run in different laboratories. ± marks the error that the study gave.

Cc1ncsc1-c1ccc(C(CO)NC(=O)C2CC(O)CN2C(=O)C(C(C)C)n2cc(-c3ccc(COc4c(-c5c(C)c(F)cc6[nH]ncc56)c(C5CC5)cc5c(N6CC7CC6CN7)nc(OC6CCOCC6)nc45)cc3)nn2)cc1 (centres unmarked) — IC50 (BXPC-3 (KRAS wild type); cell growth, CellTiter-Glo; 144 h, 3D culture): > 10 µM
COc1c(O)cc2oc3cc(O)c(CCC(C)C)c(O)c3c(=O)c2c1CCC(C)C — IC50 (BEAS-2B; cell growth or viability): 14.3 µM
COc1ccc2cc([C@H](C)C(=O)[O][Pt-2]34([O]C(=O)[C@@H](C)c5ccc6cc(OC)ccc6c5)([NH2+][C@@H]5CCCC[C@H]5[NH2+]3)[O]C(=O)C(=O)[O]4)ccc2c1 — IC50 (CT26; cell growth, MTT; 48 h): 8.2 ± 0.6 µM
COC(=O)[C@H]1[C@H]2C[C@H]3O[C@@]4(CCN3C[C@H]2C[C@@H](OC(=O)c2cc(OC)c(OC)c(OC)c2)[C@@H]1OC)C(=O)Nc1cc(OC)c(-c2ccc(C(F)(F)F)cc2)cc14 — IC50 (NALM-6; cell growth or viability, trypan blue; 72 h): 1.79 µM
O=C1CC[C@H](N2Cc3cc(-c4cnn5ccc(Cl)nc45)ccc3C2=O)C(=O)N1 — IC50 (MOLM-13; cell growth, CellTiter luminescence; 72 h): > 0.1 µM
CC(C)(C)CC(C)(C)Nc1c(-c2ccc3c(c2)OCO3)nc2cnccn12 — IC50 (CT26; cell growth or viability, MTT; 24 h): 40.9 µM
CC(=O)O[C@H]1C[C@@H]2[C@@]3(C)C=CC(=O)C(C)(C)[C@H]3C[C@@H](O)[C@@]2(C)C2=CC[C@@H](c3ccoc3)[C@@]21C — IC50 (HEp-2; cell growth or viability, MTT; 48 h): 40.3 µM
O=[N+]([O-])c1ccc(/C=N/NC(=S)Nc2ccccc2)s1 — IC50 (HEL human lung fibroblasts; cell growth): 52.1 µM
O=C(CN1C(=O)S/C(=C\c2ccccc2Br)C1=O)Nc1ccc(C(=O)Nc2ccc(F)cc2)cc1 — IC50 (HT-29, A549, HCT-116; cell growth, MTT; range over cell lines): 9.17 to 47.2 µM
N=C(N/N=C/c1ccccn1)N/N=C/c1ccccn1 — IC50 (hTERT-HPNE; cell growth, crystal violet; 72 h): 199 ± 23.8 µM
COc1c(O)c(Br)c2oc3c(Br)c(O)c(CCC(C)C)c(O)c3c(=O)c2c1CCC(C)C — IC50 (BEAS-2B; cell growth or viability): 20.7 µM
N=C(N/N=C/c1cc(C(F)(F)F)cc(C(F)(F)F)c1)N/N=C/c1cc(C(F)(F)F)cc(C(F)(F)F)c1 — IC50 (hTERT-HPNE; cell growth, crystal violet; 72 h): 375 ± 30 µM
CSCC[C@H](NC(=O)[C@H](CC(=O)O)NC(=O)[C@H](CC(C)C)NC(=O)[C@H](CCSC)NC(=O)[C@@H]1CCCN1C(=O)[C@@H](NC(=O)[C@H](Cc1ccc(OP(=O)(O)O)cc1)NC(=O)[C@H](CC(=O)O)NC(=O)[C@@H](NC(=O)[C@H](CO)NC(=O)[C@H](CCC(=O)O)NC(=O)[C@H](CC(=O)O)NC(=O)[C@@H](N)CCCCN)C(C)C)C(C)C)C(=O)N[C@@H](CCCCN)C(=O)N[C@@H](CCCCNC(=O)CNC(=O)[C@H](CCCCN)NC(=O)[C@H](CCCNC(=N)N)NC(=O)[C@H](Cc1ccccc1)NC(=O)[C@H](CCCNC(=N)N)NC(=O)[C@H](CCCNC(=N)N)NC(=O)[C@H](CCCNC(=N)N)NC(=O)[C@H](CO)NC(=O)[C@H](Cc1ccc(O)cc1)NC(=O)[C@H](CO)NC(=O)[C@H](CC(C)C)NC(=O)[C@H](CCCNC(=N)N)NC(=O)[C@@H](N)CCCNC(=N)N)C(N)=O — IC50 (HPASMC; PDGF-induced Akt phosphorylation, inhibitor, Western blot, measured: phospho-Akt; 30 min preincubation, serum-free medium, together with: PDGF 1 ng/mL, 10 min): 22.6 µM
C=C(C)[C@H]1CC[C@@]2(C)CC[C@]3(C)C[C@H]4[C@@H](C)[C@H](O)C[C@H]4/C(C)=C\C[C@H]3[C@H]12 — IC50 (CT26; cell growth or viability, MTT; 72 h): 3.1 µM
CC/C(=C(\c1ccccc1)c1ccc(OCCN(C)CCCCCCC(=O)NCCc2c[nH]c3ccc(OC)cc23)cc1)c1ccccc1 — IC50 (HT-1080; cell survival, MTT; day 9, dosed days 2, 4, 7): 5.7 µM
CC1=C2[O][Ru-]([Cl])[O+]=C2C=CN1CCCCCCN1C=CC2=[O+][Ru-]([Cl])[O]C2=C1C.Cc1ccc(C(C)C)cc1.Cc1ccc(C(C)C)cc1 — IC50 (A-427; cell growth or viability, crystal violet; 96 h): 13 µM
COc1cc(N(C)CCN(C)C)c(NC(=O)/C=C/c2ccc(Cl)cc2)cc1Nc1nccc(-c2cn(C)c3ccccc23)n1 — IC50 (NCI-H1975; cell growth or viability, MTT; 72 h): 0.251 µM
NCCNC(=O)c1ccc2[nH]c(/C(=N/Nc3ccc(F)cc3)c3ccc(O)cc3)nc2c1 — IC50 (SNU-1 (KRAS G12D); cell viability, CellTiter-Glo; 72 h): 75.7 ± 3.4 µM
COc1cc(OC)cc(C2=C3C(C)=C(I)C(C)=[N+]3[B-](F)(F)n3c(/C=C/c4c[nH]c5ccc([N+](=O)[O-])cc45)c(I)c(C)c32)c1 — IC50 (HEp-2; cell growth or viability, resazurin; 24 h, dark): > 400 µM
COC(=O)CNc1cc(C[S+]([O-])c2ccc3ccccc3c2)ccc1OC (centres unmarked) — IC50 (SCC-15; cell growth or viability, MTS; 48 h): 0.786 µM
CSc1nc(Nc2cccc(/C(C)=N/NC(=O)c3ccccc3Cl)c2)c(C#N)c(-c2ccccc2)n1 — IC50 (HCT-116 and MCF7; cell growth, MTT; range over compound group): 1.14 to 10.3 µM
Cc1ccc(CNS(=O)(=O)c2cccc(/C=C/C(=O)NO)c2)cc1 — IC50 (MOPC-315; cell growth; 24 h): 0.167 ± 0.014 µM
CC[C@H](C)[C@H](N)C(=O)Nc1ccc2nc(Cc3c[nH]c4ccccc34)[nH]c2c1 — IC50 (SNU-1 (KRAS G12D); cell viability, CellTiter-Glo; 72 h): 9.5 ± 1.9 µM
Cc1c(-c2cccc(C3=NCCN3)c2)oc(-c2cccc(C3=NCCN3)c2)c1C — IC50 (SV40-transformed WI-38 ALT fibroblasts; cell growth, SRB; 96 h): 1 µM
O=C(Nc1ccc(F)cc1)c1ccccc1-n1c(=O)[nH]c2ccccc2c1=O — IC50 (B16-F10; cell growth or viability, MTT; 24 h): 25.8 µM
CC(C)=CCc1c(-c2cc(O)c(O)cc2O)oc2c(CC=C(C)C)c(O)cc(O)c2c1=O — IC50 (T.Tn; cell growth, MTT; 72 h): 92 µM
O=C(N[c-]1cccc1)OCc1ccc(F)cc1.[Fe+2].c1cc[cH-]c1 — IC50 (BL2; cell growth or viability, MTT; 48 h): 17.9 µM
N#C/C(=C\c1cn(-c2ccccc2)nc1-c1ccccc1)c1nc2ccccc2[nH]1 — IC50 (ASPC1; cell growth or viability, ATP luminescence; 72 h): > 100 µM
[Cl][Pt-]1([Cl])[S]C(Nc2ccccc2)=N[N+]1=Cc1ccc(-c2ccccc2)s1 — IC50 (HEL human lung fibroblasts; cell proliferation): 52.7 µM
CSc1nc(Nc2ccc(/C(C)=N/NC(=O)c3ccccc3Cl)cc2)c(C#N)c(-c2ccccc2)n1 — IC50 (HCT-116 and MCF7; cell growth, MTT; range over compound group): 9.25 to 15.3 µM
N=C(N/N=C/c1cccs1)N/N=C/c1cccs1 — IC50 (hTERT-HPNE; cell growth, crystal violet; 72 h): 121 ± 20.5 µM
COc1cc(OC)cc(C2=C3C(C)=C(I)C(/C=C/c4c[nH]c5ccccc45)=[N+]3[B-](F)(F)n3c(/C=C/c4c[nH]c5ccccc45)c(I)c(C)c32)c1 — IC50 (HEp-2; cell growth or viability, resazurin; 24 h, dark): > 400 µM
c1ccc(-c2cn(-c3ccc(-c4cc(-c5ccccn5)nc(-c5ccccn5)c4)cc3)nn2)cc1 — IC50 (NHDF normal human fibroblasts; cytotoxicity, MTS; 72 h): > 25 µM
CCOC(=O)c1[nH]c(C)c(/C=C/c2c(I)c(C)c3n2[B-](F)(F)[N+]2=C(C)C(I)=C(C)C2=C3c2cc(OC)cc(OC)c2)c1C — IC50 (HEp-2; cell growth or viability, resazurin; 24 h, dark): > 400 µM
Cc1cc(C#N)cc(C)c1Oc1cc(Nc2ccc(C#N)cn2)nc2cnccc12 — IC50 (S102; 48 h): > 127 µM
COc1cc(OC)cc(C2=C3C(C)=C(I)C(C)=[N+]3[B-](F)(F)n3c(/C=C/c4c[nH]c5ccccc45)c(I)c(C)c32)c1 — IC50 (HEp-2; cell growth or viability, resazurin; 24 h, dark): 148 µM
C=CC(=O)Nc1ccc(F)c(-c2ncnc3[nH]cc(C(=O)OCC)c23)c1 — IC50 (mouse CD4 T-cell blasts; STAT1 phosphorylation; together with: IFN-gamma): > 1.1 µM
Cc1ccc(CNC(=O)C(CCc2ccccc2)NC(=O)C(NC(=O)c2ccc(OCc3ccc(C(C)(C)C)cc3)cc2)C(C)O)cc1 (centres unmarked) — IC50 (Karpas-1106P; proteasome β5 activity, inhibitor, Proteasome-Glo β5; 1 h): 0.31 ± 0.15 µM
Nc1nc2cnc(C(=O)N3CCOC[C@@H]3c3ccc(C(F)(F)F)cc3)cc2c2c1COC2 — IC50 (HCT-116 MTAP-deleted; 144 h): 0.107 µM
CC[C@H](CC[C@@H](C)[C@H]1CC[C@H]2[C@@H]3[C@@H](O)C=C4C[C@@H](O)CC[C@]4(C)[C@H]3CC[C@]12C)C(C)C — IC50 (SCM-1; cytotoxicity, MTT): > 30 µM
Cc1cc(O)cc2c1O[C@](C)(CCC[C@H](C)CCC[C@H](C)CCCC(C)C)CC2 — IC50 (SK-MEL3; cell growth or viability, MTT; 24 h): 2.93 µM
CN(C)C1=[S+][Au-2]2([S]1)[c]1ccccc1-c1cccc[n+]12.F[P-](F)(F)(F)(F)F (centres unmarked) — IC50 (UWB1289; cell growth or viability, MTT; 72 h): 2.69 µM
CC(C)(CCCC/C=C/CCCCCC(C)(C)C(=O)O)C(=O)O — IC50 (mouse primary hepatocytes; fatty acid synthesis, inhibitor; 4 h, together with: [1,2-14C]acetate incorporation): 0.76 ± 0.2 µM
CC1CCC(NC(=O)N(C)c2cnc3ccc(-c4ccc(OCCCCCC(=O)NO)nc4)cc3n2)CC1 (centres unmarked) — IC50 (Hs 1.Tes normal testicular; cell growth, MTT; 48 h): > 10 µM

Repeated from above:
CSCC[C@H](NC(=O)[C@H](CC(=O)O)NC(=O)[C@H](CC(C)C)NC(=O)[C@H](CCSC)NC(=O)[C@@H]1CCCN1C(=O)[C@@H](NC(=O)[C@H](Cc1ccc(OP(=O)(O)O)cc1)NC(=O)[C@H](CC(=O)O)NC(=O)[C@@H](NC(=O)[C@H](CO)NC(=O)[C@H](CCC(=O)O)NC(=O)[C@H](CC(=O)O)NC(=O)[C@@H](N)CCCCN)C(C)C)C(C)C)C(=O)N[C@@H](CCCCN)C(=O)N[C@@H](CCCCNC(=O)CNC(=O)[C@H](CCCCN)NC(=O)[C@H](CCCNC(=N)N)NC(=O)[C@H](Cc1ccccc1)NC(=O)[C@H](CCCNC(=N)N)NC(=O)[C@H](CCCNC(=N)N)NC(=O)[C@H](CCCNC(=N)N)NC(=O)[C@H](CO)NC(=O)[C@H](Cc1ccc(O)cc1)NC(=O)[C@H](CO)NC(=O)[C@H](CC(C)C)NC(=O)[C@H](CCCNC(=N)N)NC(=O)[C@@H](N)CCCNC(=N)N)C(N)=O — IC50 (HPASMC; PDGF-induced Akt phosphorylation, inhibitor, Western blot, measured: phospho-Akt; 30 min preincubation, serum-free medium, together with: PDGF 1 ng/mL, 10 min): 22.6 µM
C=C(C)[C@H]1CC[C@@]2(C)CC[C@]3(C)C[C@H]4[C@@H](C)[C@H](O)C[C@H]4/C(C)=C\C[C@H]3[C@H]12 — IC50 (CT26; cell growth or viability, MTT; 72 h): 3.1 µM
CC/C(=C(\c1ccccc1)c1ccc(OCCN(C)CCCCCCC(=O)NCCc2c[nH]c3ccc(OC)cc23)cc1)c1ccccc1 — IC50 (HT-1080; cell survival, MTT; day 9, dosed days 2, 4, 7): 5.7 µM
CC1=C2[O][Ru-]([Cl])[O+]=C2C=CN1CCCCCCN1C=CC2=[O+][Ru-]([Cl])[O]C2=C1C.Cc1ccc(C(C)C)cc1.Cc1ccc(C(C)C)cc1 — IC50 (A-427; cell growth or viability, crystal violet; 96 h): 13 µM
COc1cc(N(C)CCN(C)C)c(NC(=O)/C=C/c2ccc(Cl)cc2)cc1Nc1nccc(-c2cn(C)c3ccccc23)n1 — IC50 (NCI-H1975; cell growth or viability, MTT; 72 h): 0.251 µM
